Assay results from different studies.
A part holds a random share of what one study measured. Substitutions count along the parent as printed.

Study 1 — target: CEP164, C-terminal peptide (human); technique: DHFR complementation, deep sequencing; sample: yeast; baseline: wild type; reading: higher = weaker binding; quantity: binding free energy change
Notes: single substitutions, model-inferred values
Starting sequence: PDZK1, PDZ domain 2 (human); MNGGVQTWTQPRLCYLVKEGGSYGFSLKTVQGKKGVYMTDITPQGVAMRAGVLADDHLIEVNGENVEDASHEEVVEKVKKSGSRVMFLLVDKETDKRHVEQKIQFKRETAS; partner HNRVKVYRF
Y23K: 1.45 kcal/mol
F87V: 0.643 kcal/mol
T7N: -0.115 kcal/mol
E64M: 0.118 kcal/mol
M1L: -0.113 kcal/mol
Y37F: 0.0674 kcal/mol
C14T: 0.179 kcal/mol
V30M: 0.136 kcal/mol

Study 2 — technique: protein binding microarray; form: double-stranded DNA, one strand shown; sample: in vitro; tested at: not given; baseline: not given; reading: higher = stronger binding; quantity: E-score
Target: Histone acetyltransferase KAT6A, both winged helices, GST fusion (KAT6A, Homo sapiens, UniProt Q92794, residues 1-181)
Notes: 8-mer, flanks averaged, mean of 2 arrays, mostly near background
Target sequence (chain): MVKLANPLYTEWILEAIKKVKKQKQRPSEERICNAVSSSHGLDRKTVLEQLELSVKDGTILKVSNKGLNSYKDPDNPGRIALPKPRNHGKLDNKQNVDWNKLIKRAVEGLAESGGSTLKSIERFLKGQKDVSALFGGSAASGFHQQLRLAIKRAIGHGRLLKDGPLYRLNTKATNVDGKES
CGATCTAC: -0.044
CACCGTTA: 0.0621
CCTGCCCG: 0.135
ATTTGCGG: 0.157
CTGCGTAA: 0.145
CTGAGCCA: -0.046
AGATCTTA: -0.0558
ACCATGTG: -0.103

Single results of other studies
P1: PafA, mature enzyme, eGFP fusion (Elizabethkingia meningoseptica, UniProt Q9KJX5); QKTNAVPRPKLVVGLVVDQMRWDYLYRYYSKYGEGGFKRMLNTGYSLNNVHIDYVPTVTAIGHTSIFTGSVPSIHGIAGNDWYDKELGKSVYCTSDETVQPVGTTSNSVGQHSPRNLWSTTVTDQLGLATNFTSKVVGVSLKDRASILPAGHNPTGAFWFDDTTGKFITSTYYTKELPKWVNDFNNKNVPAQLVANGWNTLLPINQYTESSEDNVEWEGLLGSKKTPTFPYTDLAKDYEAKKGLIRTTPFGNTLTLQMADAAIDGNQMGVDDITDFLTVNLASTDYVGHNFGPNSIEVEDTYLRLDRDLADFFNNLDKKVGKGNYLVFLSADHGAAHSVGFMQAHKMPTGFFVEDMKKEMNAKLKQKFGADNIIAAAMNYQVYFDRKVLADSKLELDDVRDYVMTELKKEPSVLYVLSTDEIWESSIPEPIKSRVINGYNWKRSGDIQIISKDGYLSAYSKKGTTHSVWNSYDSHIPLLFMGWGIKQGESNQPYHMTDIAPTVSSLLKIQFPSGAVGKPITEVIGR
P1 N199G
phosphate dissociation constant (inorganic phosphate, free oxyanion; microfluidic competitive inhibition; in vitro, cell-free expressed; not given, derived from inhibition constants, unchanged parent 615000 nM; lower = stronger binding): 589 µM

PhoQ, residues 284 288 289 292 302 303 SVHLDV
fold induction (PhoP, residues 12 14 15 18 19 TQAIL (Escherichia coli, UniProt P23836); Sort-seq, refers to: YFP reporter; E. coli; PhoQ-PhoP variant library, with: 10 µM Mg2+; baseline: high Mg2+ state, higher = stronger signaling): 37.8
